Results collected from several papers.
Compare with care: the assays were run in different laboratories.
Organism: SARS-CoV-2

Cc1ccc(N2CC3CC(C2)N3C)cc1C(=O)NC1(c2ccc3c4c(cccc24)C(=O)N3C)CC1
inhibition (viral replication; Vero C1008, Omicron BA.5; 0.1543 µM, 72 h): 5%

CC(C)(C)NC(=O)[C@@H](c1cccnc1)N(C(=O)c1ccco1)c1ccc(C(C)(C)C)cc1
inhibition (viral replication; Vero; 1 µM): 1.52%

Cc1ccc(N2CCN(C)CC2)cc1C(=O)NC1(c2ccc3c4c(cccc24)CC3)CC1
inhibition (viral replication; Vero C1008, XBB.1; 0.05144 µM): 0%

Cc1oc2nc1C(=O)N[C@](C)(C(=O)NCCc1ccccc1)c1nc(c(C)o1)C(=O)N[C@](C)(C(=O)NCCc1ccccc1)c1nc(c(C)o1)C(=O)N[C@]2(C)C(=O)NCCc1ccccc1
inhibition (viral adsorption; Vero E6, NRC-03-nhCoV; 2.5 µM): 0%

Cc1ccc(N2CC(N3CCC(C)(O)CC3)C2)cc1C(=O)NC1(c2ccc3c4c(cccc24)C(=O)N3C)CC1
inhibition (viral replication; Vero C1008, wild type; 0.05144 µM): 70%

Cc1oc2nc1C(=O)N[C@](C)(C(=O)OC(C)C)c1nc(c(C)o1)C(=O)N[C@](C)(C(=O)OC(C)C)c1nc(c(C)o1)C(=O)N[C@]2(C)C(=O)OC(C)C
inhibition (viral adsorption; Vero E6, NRC-03-nhCoV; 5 µM): 0%

CCOC(=O)c1c(CSc2ccccc2)n(C)c2cc(-c3cccnc3)c(O)c(CN3CCN(CCOCCO)CC3)c12
inhibition (Vero C1008, MEX-BC2/2020; concentration not given): ~47%

Cc1oc2nc1C(=O)N[C@](C)(C(=O)O)c1nc(c(C)o1)C(=O)N[C@](C)(C(=O)O)c1nc(c(C)o1)C(=O)N[C@]2(C)C(=O)O
inhibition (viral replication; Vero E6, NRC-03-nhCoV; 5 µM): 30%

CC(C)CC(C(=O)N1CC2(CC1C#N)C(=O)Nc1ccccc12)N(C)C(=O)c1cc2c(F)cc(F)c(F)c2[nH]1 (stereo not drawn)
inhibition (viral replication, infectious virus; Vero E6; 0.1111 µM): 96.3%

Some of these lines once more:
Cc1oc2nc1C(=O)N[C@](C)(C(=O)OC(C)C)c1nc(c(C)o1)C(=O)N[C@](C)(C(=O)OC(C)C)c1nc(c(C)o1)C(=O)N[C@]2(C)C(=O)OC(C)C
inhibition (viral adsorption; Vero E6, NRC-03-nhCoV; 5 µM): 0%
